Measured values of several laboratories.
Protocols differ between the studies behind these lines.
Chain of UniProt P27037 (whole entry, looked up): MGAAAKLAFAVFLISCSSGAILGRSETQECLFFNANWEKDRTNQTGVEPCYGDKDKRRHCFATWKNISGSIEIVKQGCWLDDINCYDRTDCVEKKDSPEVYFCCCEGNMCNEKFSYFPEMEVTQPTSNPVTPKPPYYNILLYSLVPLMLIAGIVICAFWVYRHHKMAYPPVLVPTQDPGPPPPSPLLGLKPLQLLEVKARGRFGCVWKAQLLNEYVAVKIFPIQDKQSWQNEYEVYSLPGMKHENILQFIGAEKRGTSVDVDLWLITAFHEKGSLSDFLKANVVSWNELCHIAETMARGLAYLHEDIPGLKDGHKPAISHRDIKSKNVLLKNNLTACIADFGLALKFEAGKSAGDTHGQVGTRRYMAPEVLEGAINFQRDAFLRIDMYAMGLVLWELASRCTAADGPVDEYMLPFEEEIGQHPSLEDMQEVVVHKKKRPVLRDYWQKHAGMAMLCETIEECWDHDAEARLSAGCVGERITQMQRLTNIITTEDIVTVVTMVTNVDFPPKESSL
Chain of UniProt O95835 (whole entry, looked up): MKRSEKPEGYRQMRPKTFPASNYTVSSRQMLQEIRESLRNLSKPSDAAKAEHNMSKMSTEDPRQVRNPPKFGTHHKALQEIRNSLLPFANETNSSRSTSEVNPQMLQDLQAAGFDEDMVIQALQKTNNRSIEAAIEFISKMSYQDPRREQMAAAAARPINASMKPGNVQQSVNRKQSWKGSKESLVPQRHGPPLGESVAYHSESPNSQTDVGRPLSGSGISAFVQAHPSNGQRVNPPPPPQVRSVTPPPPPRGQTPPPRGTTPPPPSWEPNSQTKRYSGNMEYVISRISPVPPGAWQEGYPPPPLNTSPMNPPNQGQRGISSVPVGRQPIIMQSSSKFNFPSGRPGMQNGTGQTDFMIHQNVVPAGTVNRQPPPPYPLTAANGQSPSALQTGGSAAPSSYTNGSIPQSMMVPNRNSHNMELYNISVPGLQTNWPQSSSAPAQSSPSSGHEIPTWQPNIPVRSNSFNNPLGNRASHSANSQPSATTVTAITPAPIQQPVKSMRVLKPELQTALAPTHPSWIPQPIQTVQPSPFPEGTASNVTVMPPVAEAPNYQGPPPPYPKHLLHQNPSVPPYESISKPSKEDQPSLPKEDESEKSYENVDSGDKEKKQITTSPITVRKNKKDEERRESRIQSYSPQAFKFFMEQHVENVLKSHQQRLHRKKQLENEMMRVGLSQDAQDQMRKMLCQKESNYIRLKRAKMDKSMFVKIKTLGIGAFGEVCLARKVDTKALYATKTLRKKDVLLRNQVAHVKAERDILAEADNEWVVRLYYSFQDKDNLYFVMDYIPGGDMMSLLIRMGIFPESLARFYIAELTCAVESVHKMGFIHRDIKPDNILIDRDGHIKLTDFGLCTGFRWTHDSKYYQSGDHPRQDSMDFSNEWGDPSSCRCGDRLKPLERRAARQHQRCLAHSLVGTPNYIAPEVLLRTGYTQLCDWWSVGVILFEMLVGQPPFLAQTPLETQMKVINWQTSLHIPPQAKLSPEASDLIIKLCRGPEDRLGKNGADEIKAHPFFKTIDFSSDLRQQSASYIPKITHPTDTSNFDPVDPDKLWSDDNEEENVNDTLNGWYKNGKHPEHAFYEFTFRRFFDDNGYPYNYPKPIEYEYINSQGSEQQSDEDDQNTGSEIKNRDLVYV
Chain of UniProt P35590 (whole entry, looked up): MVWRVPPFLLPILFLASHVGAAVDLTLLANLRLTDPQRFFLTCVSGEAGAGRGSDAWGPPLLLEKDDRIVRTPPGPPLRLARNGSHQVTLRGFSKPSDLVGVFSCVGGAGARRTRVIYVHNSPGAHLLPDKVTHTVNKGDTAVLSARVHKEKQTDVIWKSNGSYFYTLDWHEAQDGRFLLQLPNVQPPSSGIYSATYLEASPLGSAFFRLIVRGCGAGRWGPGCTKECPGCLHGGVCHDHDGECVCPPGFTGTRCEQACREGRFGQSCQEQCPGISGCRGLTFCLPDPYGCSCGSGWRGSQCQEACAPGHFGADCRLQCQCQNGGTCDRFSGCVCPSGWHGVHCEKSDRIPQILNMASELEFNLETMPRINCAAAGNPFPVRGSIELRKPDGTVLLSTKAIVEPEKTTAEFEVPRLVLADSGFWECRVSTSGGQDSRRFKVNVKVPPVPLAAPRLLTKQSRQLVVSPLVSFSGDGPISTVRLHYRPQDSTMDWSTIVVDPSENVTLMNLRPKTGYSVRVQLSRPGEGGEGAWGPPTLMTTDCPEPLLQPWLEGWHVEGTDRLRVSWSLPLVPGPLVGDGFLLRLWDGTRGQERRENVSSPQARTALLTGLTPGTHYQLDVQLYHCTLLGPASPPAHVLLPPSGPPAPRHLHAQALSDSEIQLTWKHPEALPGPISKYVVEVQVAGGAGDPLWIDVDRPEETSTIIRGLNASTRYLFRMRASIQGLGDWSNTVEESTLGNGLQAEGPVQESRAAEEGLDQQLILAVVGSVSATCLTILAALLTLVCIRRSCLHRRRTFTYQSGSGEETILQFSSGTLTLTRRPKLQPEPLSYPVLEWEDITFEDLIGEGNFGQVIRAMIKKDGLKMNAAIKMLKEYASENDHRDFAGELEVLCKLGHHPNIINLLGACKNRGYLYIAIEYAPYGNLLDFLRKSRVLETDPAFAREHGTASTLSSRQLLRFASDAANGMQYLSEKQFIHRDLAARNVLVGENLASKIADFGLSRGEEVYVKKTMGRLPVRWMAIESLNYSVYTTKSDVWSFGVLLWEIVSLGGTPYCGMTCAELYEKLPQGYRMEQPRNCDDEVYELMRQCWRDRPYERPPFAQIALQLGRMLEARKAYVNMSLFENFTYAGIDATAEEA

O=c1nc(N2CCN(CC3CCCCC3)CC2)sc2c([N+](=O)[O-])cc(C(F)(F)F)cc12
concentration (CD-1 mouse, plasma; oral, 100 mg/kg, 4 h): 2580 ng/mL

[2H]c1c([2H])c([C@]2([2H])CCCN2C(=O)C(C)(C)Oc2ccc3cn[nH]c3c2)c([2H])c([2H])c1C([2H])([2H])[2H]
remaining binding (TIE1 (Homo sapiens, UniProt P35590); binding, competition with immobilised ligand; 1 µM): 77%

Cc1cc([C@@H](C)Nc2ccccc2C(=O)O)c2nc(N3CCC(F)(F)CC3)c(C#N)c(=O)n2c1
remaining binding (FLT3 (Homo sapiens, UniProt P36888); binding, competition with immobilised ligand; 10 µM): 96%

CCN(O)N=Nc1ccc(S(=O)(=O)Nc2onc(C)c2C)cc1
inhibition (DPPH scavenging, absorbance; 20 µg/mL): 9.81%

CCCCC(=O)Nc1ccc(-c2ccc3ncn(CCC)c(=O)c3c2)cn1
remaining binding (FLT3 (Homo sapiens, UniProt P36888, D835H); binding, competition with immobilised ligand; 0.5 µM): 100%

C1=C/COCc2cc(ccc2OCCN2CCCC2)Nc2nccc(n2)-c2cccc(c2)COC/1
remaining signal (FLT3 (Homo sapiens, UniProt P36888, ITD); cell-free assay; 0.1 µM): 4.3%

CNc1ncc2c(/C=C/C(=O)N3CCC(OC)CC3)nn(Cc3cccc(C(F)(F)F)c3)c2n1
remaining activity (ACVR2A (Homo sapiens, UniProt P27037); enzyme activity, inhibitor, radiometric; 1 µM): 94%

COc1cc(-c2cncc3c2CN(C)Cc2cc(N4CCNCC4)ccc2-3)cc(OC)c1OC
remaining activity (LATS1 (Homo sapiens, UniProt O95835); enzyme activity, inhibitor; 1 µM): 118%

Excerpt of the above:
CCN(O)N=Nc1ccc(S(=O)(=O)Nc2onc(C)c2C)cc1
inhibition (DPPH scavenging, absorbance; 20 µg/mL): 9.81%
